Measurements gathered from unrelated publications.
A part holds a random share of what one study measured.

Sample 1 — technique: RNA Bind-n-Seq; form: RNA; matrix: in vitro; concentration: 200 nM; setting: whole 134-nt RNA, ends assumed; together with: 150 mM KCl; relative to: input library; reading: higher = stronger binding
Target: Ras GTPase-activating protein-binding protein 1, full length (G3BP1, Homo sapiens, UniProt Q13283)
Sequence of UniProt Q13283 (whole entry, looked up): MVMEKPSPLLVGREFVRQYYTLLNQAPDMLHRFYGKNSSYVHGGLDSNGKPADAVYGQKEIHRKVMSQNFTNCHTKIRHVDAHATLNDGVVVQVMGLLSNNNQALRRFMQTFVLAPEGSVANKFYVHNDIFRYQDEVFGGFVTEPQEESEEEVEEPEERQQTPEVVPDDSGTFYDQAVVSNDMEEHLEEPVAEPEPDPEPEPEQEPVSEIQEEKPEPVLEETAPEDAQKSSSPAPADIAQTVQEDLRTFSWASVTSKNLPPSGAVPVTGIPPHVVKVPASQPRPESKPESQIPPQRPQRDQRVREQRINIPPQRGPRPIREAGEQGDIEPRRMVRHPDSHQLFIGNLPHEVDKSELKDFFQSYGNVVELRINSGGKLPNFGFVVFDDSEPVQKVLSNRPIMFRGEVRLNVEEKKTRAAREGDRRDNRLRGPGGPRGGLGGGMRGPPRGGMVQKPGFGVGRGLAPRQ
Sequence	log2 enrichment
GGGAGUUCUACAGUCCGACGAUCUGGGGGGUGGAUUUUGUUUAUUUUUUUAGCUCAUUUCCAGGGGUGGGAAUUUUUUUUUAAUAUGUGUCAUGAAUAAAGUUGUUUUUGAAAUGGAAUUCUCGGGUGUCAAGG	0.393
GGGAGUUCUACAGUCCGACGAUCAGUCCUGUGCUACACAUCGUAUGUACCGAAUCGGGGAAAAAGGGGUUUGGGGAGGGGAAAGUAUUAUGUUACGCCGUUCGGAUCUGCACUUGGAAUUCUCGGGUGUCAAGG	0.425
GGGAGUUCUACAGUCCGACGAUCAGUCCUGUGCUACACAUCGUAUGUACCGAAUCGGGUUUUGGGUUUUGGGGUUUUGGGGAAAGUAUUAUGUUACGCCGUUCGGAUCUGCACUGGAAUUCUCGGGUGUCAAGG	0.00287
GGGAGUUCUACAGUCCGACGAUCUAACUUUAGAGGAGGCUCUGAUGGAUAUGGCAGUGGACGUGGAUUUGGGGAUGGCUAUAAUGGGUAUGGAGGAGGACCUGGAGGUGGCAAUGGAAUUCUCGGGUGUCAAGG	0.35
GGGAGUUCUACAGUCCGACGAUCAAGUCCUGUGCUACACAUCGUAUGUACCGAAUCGGGCCCCGGGCCCCGGGCCCCGGAAAGUAUUAUGUUACGCCGUUCGGAUCUGCACUUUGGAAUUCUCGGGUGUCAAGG	-1.21
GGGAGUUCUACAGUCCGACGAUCUGGGAGGUGGAUUUUGUUUAUUUUUUUAGCUCAUUUCCAGGGGUGGGAAUUUUUUUUUAAUAUGUGUCAUGGAUAAAGUUGUUUUUGAAAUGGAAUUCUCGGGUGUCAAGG	0.592
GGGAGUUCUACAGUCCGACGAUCCACAGACAACACGCACCCACACAGACACAGAGGGAAGGGGUUGGGAUGGGAAAAGGGUGCACAGCAGGGCGGGGUAGGACCCCAGCCCCUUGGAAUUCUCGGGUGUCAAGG	1.99
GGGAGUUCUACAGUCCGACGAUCCUGUGCUACACAUCGUAUGUACCGAAUCAAAUUUUUUUAAAUUUUUUUAAAUUUUUUUAAAAAAGUAUUAUGUUACGCCGUUCGGAUCUGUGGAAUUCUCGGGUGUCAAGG	-1.44
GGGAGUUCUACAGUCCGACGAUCGCAGGAAGUAAAAACAAAUGGAAAUGCUUCGGAUAGUGGCAGGGGUGGGGGUUGCUAAGGAAAGGAAAGGAUGGGAGUGGGUAAAGAGUUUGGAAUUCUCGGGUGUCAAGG	0.584
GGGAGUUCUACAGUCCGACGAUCCUGUGCUACACAUCGUAUGUACCGAAUCGGGAAAAAAAGGGGAAAAAAAGGGAAAAAAAGGGAAAGUAUUAUGUUACGCCGUUCGGAUCUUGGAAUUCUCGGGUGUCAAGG	-0.797
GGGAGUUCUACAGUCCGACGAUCACCAUGCAGGAAAGCAUCUUUGGGAAGUGGGGCAAGGGGGGGAUAGGGAGGGGGGUAACACUUUGGGAACAGGUGGUCCCAGGUCGUUUCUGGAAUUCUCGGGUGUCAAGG	1.31
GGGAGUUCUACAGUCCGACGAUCCAAGUCCUGUGCUACACAUCGUAUGUACCGAAUCAAACCCAAAUUUAAACCCAAAAAAGUAUUAUGUUACGCCGUUCGGAUCUGCACUUCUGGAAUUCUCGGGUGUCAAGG	-0.352
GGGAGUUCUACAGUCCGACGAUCUGGGAGGUGGAUUUUGUUUAUUUUUUUAGCUCAUUUCCAGGGGUGGGAUUUUUUUUUUAAUAUGUGUCAUGAAUAAAGUUGUUUUUGAAAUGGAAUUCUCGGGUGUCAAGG	0.385
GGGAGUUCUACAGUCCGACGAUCAGUCCUGUGCUACACAUCGUAUGUACCGAAUCGGGAAAAAGGGAAAAAGGGAAAAAGGAAAGUAUUAUGUUACGCCGUUCGGAUCUGCACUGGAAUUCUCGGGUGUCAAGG	-0.722

Sample 2 — technique: RNA Bind-n-Seq; form: RNA; matrix: in vitro; concentration: 365 nM; relative to: no-protein control; reading: higher = stronger binding
Target: RNA binding protein fox-1 homolog 2, RRM domain, GST-SBP tag (RBFOX2, Homo sapiens, UniProt O43251-10, residues 100-194)
Setting: natural RNA segment, single round, ends assumed
Construct (chain): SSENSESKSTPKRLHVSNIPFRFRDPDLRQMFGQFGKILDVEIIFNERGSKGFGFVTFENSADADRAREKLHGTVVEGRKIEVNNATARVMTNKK
Sequence	RBNS enrichment (R)
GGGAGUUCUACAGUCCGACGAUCGCCAUCUUACAGGGAAAAGUUAUAACCACUAUUCCCCUAUAACAUAAUGCUAAUGAUUGUACUUAGUACAUUUUUAUACUUUUAUGAUAUUUUACUGAUUGGAAAUGUCAUGGAAUUCUCGGGUGCCAA	0.293
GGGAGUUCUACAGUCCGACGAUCACACAGCAGGUGUGAGAUGUCAUCUUGGAAGACAGGCCUUGCAGAAAUAGGCCUACAUCCAAAAUAUUAUCUUGUGACUCCAUGAACCAUUCAUUAACCCUUUGUAUCUUUGGAAUUCUCGGGUGCCAA	0.561
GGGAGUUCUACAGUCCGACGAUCGUGUACACCCUCACCCGCUGCUGUCCUGCCCUCUGCCAGUGGCCCCAUCAACCCAGGCCUGGUCUUUCCCUCUCCUGCUGAGAACCAGAACCCACCAGGAGCAGCAGAGUUGGAAUUCUCGGGUGCCAA	0.363
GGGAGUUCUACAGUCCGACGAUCGUCUAGGACAACAGUGCCCGGCCUUGCACCUACUUGCCAGUUCUGCUUUGCCCAGCCUUGCUUUGGACCAGCUCUGCUACGUCUCCAGGGAAACCAAGCUUGGGCCUUGCUGGAAUUCUCGGGUGCCAA	0.458
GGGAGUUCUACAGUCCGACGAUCGUGAUGGCUGUCUCUCUCUAGUAAUGUCCUUGUUCUUAUUCUUCCCUCCUACAGCUGGCCUAACCACUCUUGAGUCGGGGUGGGGGUAACCCUCAAGGAGGAGGUAACUAUGGAAUUCUCGGGUGCCAA	0.543
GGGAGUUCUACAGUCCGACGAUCCCUUGGCCACCAUACGGGCCAUCCUCAGUGAGGCAGCCCCCCAUAGGCUUCCGCCAAGCUCUGGUCCCGAAGAGGCUGUGCGAGCCCUUCCCGGCCCUCCCCAGGGCCCCUGGAAUUCUCGGGUGCCAA	0.234
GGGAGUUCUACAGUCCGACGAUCAUCCCAGAUGCCCAGAUUCCAGUCCUGGAGUUUUAUUCUCUCAGCUUGAUCCUUUGACCAAGAAGAUCCAGUCCCAAUAUGUCACCUGUGCUUCAUCUUUGGACUAUAUCUGGAAUUCUCGGGUGCCAA	0.372
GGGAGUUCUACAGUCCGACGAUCCCAGAGUCCACCUGGAAGCCUGUUCCCCUCUCCUCGGCUCCUGGUCCACCAGUGCAUGGCAGUGCCCAUGCAUGCCGGCAUAUUCAGCAGCUGUCACCUUACUCCCAUCCUGGAAUUCUCGGGUGCCAA	0.588
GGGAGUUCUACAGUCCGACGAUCAUUAUUUUGAUGUAUUAAGAUGAAUAUUGCUGAUUUAAAUUUUAUUUAUGCACAUACUUAAAGGACAGAAAUGUCUGGGAAAGUAAUUGUUAAAUAAUGAUAUGUAACUUUGGAAUUCUCGGGUGCCAA	0.476
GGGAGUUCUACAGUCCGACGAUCCUAGCCCCUCCUCCCCGCGAGACUCUCAGGCUGAGGUCGGCAAGCCGUGGCUCCCCCACACACCGUGCAAUACCCUGUCUGACCUGGGCUCUUCCCGCCUGCAUCCCUCCUGGAAUUCUCGGGUGCCAA	0.644
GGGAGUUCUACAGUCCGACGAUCGUUCAAUUUCAGCAUAUUUUAGGGUGAGUAAUCAAAAAUGUGAAUUUGCCUUUGAUUUCCUACCACUGUCUGAGCUAUCAUAAAGCAUUCUCUUUAGUUGUGAUUUGAUUUGGAAUUCUCGGGUGCCAA	1.05
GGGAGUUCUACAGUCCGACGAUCGGAGGCUGGCAGAAGCUGAGACGUGACUGUCUAGGAGUAACACUCAUUAAAGCUUUCAUUUUGGCACAGGUCAUCUUCUGUGUUCUGGUUGGGAGUGAAUGGGUGGGAGUUGGAAUUCUCGGGUGCCAA	0.32

Sample 3 — technique: protein-binding microarray; form: double-stranded DNA, one strand shown; matrix: in vitro; concentration: 2540 nM top; setting: 60-bp whole probe; together with: salmon DNA 0.4 mg/ml; relative to: random background probes; reading: higher = stronger binding; shared flanks, not repeated: GCCTAGCAC … GTCTTGATTCGCTTGACGCTGCTG
Target: Interferon regulatory factor 3, full length, phosphomimetic (IRF3, Homo sapiens, UniProt Q14653, residues 1-427, S386D/S396D/S398D/S402D/T404D/S405D)
Sequence of UniProt Q14653 (whole entry, unmodified, looked up): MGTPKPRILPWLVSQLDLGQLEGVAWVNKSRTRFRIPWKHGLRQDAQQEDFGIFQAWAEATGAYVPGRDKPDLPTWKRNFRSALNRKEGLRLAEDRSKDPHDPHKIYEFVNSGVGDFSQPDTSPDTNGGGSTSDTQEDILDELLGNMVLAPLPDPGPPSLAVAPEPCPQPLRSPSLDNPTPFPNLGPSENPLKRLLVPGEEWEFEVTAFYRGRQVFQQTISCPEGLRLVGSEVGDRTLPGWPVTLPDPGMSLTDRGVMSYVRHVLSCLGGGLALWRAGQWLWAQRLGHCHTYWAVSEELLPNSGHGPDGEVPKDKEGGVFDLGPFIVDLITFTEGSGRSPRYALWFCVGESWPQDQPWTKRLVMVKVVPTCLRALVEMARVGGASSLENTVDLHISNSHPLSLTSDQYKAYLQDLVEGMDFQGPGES
Sequence	fitted relative affinity
GAGGGTGTTCTTTTCTGTTGGTGCTAG	0.572 z-score
TTAGATATCAGTATCGAGTAGTGCTAG	1.02 z-score
GACGAACTGTGGTATCGAGACGTGCTA	-0.0947 z-score
GACGGTATCCTCTTCCTGACGTGCTAG	2.66 z-score
TTAGAACTTGGGTATCGATTAGTGCTA	-0.278 z-score
TTAGGTATCGACTAACGGTTAGTGCTA	0.155 z-score
GACGGTTTCGACTCTCGGGACGTGCTA	4.39 z-score
TCAATTCTCGGGACTCACACTGTGCTA	0.557 z-score
ACCACTCCAGTTCTGGGAAAGTGCTAG	0.495 z-score
TTATGTTTCGGTATCGGTTAGTGCTAG	7.44 z-score
CTTCCACTTAGGGTGGCTGGGTGCTAG	0.976 z-score
TTAGAACTGGCGTTTCGATTAGTGCTA	1.04 z-score
GACGGATTCCTTTTCCTGACGTGCTAG	5.61 z-score
GACGAACTGCTTTTCCTGACGTGCTAG	0.0989 z-score
TTAGAGATCAGACTGGATTAGTGCTAG	-0.344 z-score
TTAGATACCAGACTGGATTAGTGCTAG	0.927 z-score
GACGGATTCGGTTTCGGGACGTGCTAG	6.28 z-score
GACGATTTCAGACTGGGGACGTGCTAG	0.897 z-score
GACGGTTGCGGGACTGGGGACGTGCTA	1.04 z-score
GACGGTCTCCATTTCCTGACGTGCTAG	3.13 z-score
TTAGGACTGGGTTTCGGATAGTGCTAG	2.05 z-score
TCAAGCATTACTTTAGGACTGTGCTAG	-0.407 z-score
TCAGTGATCAGTCTGATACTGTGCTAG	-0.0972 z-score
TTCGGTTTCGGGTATCGGTTAGTGCTA	5.38 z-score
TATAAATTATCTTTAATCCTGTGCTAG	0.132 z-score

Sample 4 — technique: aptamer microarray, sandwich; form: DNA with 2'F-ANA; matrix: in vitro; concentration: 200 nM; together with: Cy3 exosite-II aptamer, 400 nM; reading: higher = stronger binding; sequence: GGTTGGTGTGGTTGG
Target: Prothrombin, mature alpha-thrombin (F2, Homo sapiens, UniProt P00734)
Setting: whole 15-mer aptamer, many near background
Modification	mean fluorescence intensity
2'F-ANA at 1 3 4 5 6 7 8 11 12 13	206 a.u.
2'F-ANA at 1 3 7 9 10 11 15	78.7 a.u.
2'F-ANA at 1 3 4 7 9 11 12 13 15	195 a.u.
2'F-ANA at 1 2 3 5 7 8 10 13	45.9 a.u.
2'F-ANA at 5 6 8 9 12 15	160 a.u.
2'F-ANA at 1 2 3 5 7 8 11 12 14 15	46.3 a.u.
2'F-ANA at 1 2 3 4 5 6 7 8 10	50.3 a.u.
2'F-ANA at 4 5 9 14	65.6 a.u.
2'F-ANA at 2 4 8 9 10 12 13 14	62.4 a.u.
2'F-ANA at 2 3 4 5 6 7 8 9 10 12 15	61.1 a.u.
2'F-ANA at 2 3 4 6 7 8 9 10 12 13 14	154 a.u.
2'F-ANA at 1 4 5 11 12 13	68.7 a.u.
2'F-ANA at 1 2 4 6 7 8 9 11 12 14 15	62.4 a.u.
2'F-ANA at 2 4 6 7 10 12 13	92.4 a.u.
2'F-ANA at 1 3 4 5 6 10 13	47.8 a.u.
2'F-ANA at 4 5 7 9 11 14 15	42.8 a.u.
2'F-ANA at 3 4 7 8 10 12 13 15	298 a.u.
2'F-ANA at 3 6 8 11 12 13 14	528 a.u.
2'F-ANA at 1 5 6 7 9 12 15	97.6 a.u.
2'F-ANA at 1 2 3 5 6 8 10 12 14	50.6 a.u.
2'F-ANA at 1 2 3 4 5 7 8 11 13	58.7 a.u.
2'F-ANA at 3 6 10 11 12 14 15	348 a.u.
2'F-ANA at 1 2 6 10 12 13	62.3 a.u.
2'F-ANA at 2 3 4 10 14 15	185 a.u.

Repeated from above (sample 4):
Modification	mean fluorescence intensity
2'F-ANA at 3 4 7 8 10 12 13 15	298 a.u.
2'F-ANA at 1 3 7 9 10 11 15	78.7 a.u.
2'F-ANA at 4 5 7 9 11 14 15	42.8 a.u.
2'F-ANA at 1 2 3 5 7 8 11 12 14 15	46.3 a.u.
2'F-ANA at 1 2 3 4 5 7 8 11 13	58.7 a.u.
2'F-ANA at 2 4 6 7 10 12 13	92.4 a.u.
2'F-ANA at 2 3 4 10 14 15	185 a.u.
2'F-ANA at 1 5 6 7 9 12 15	97.6 a.u.
